{"data": "Measurements pooled from the literature", "note": "Lines come from different studies, so protocols differ. ± gives the spread as reported."}
{"SMILES": "CCNC(=O)Nc1ccc(S(=O)(=O)Oc2cccnc2C)cc1", "cell line": "MOLM-13", "test": "cell growth or viability, MTT", "conditions": "48 h", "IC50": "9.7 µM"}
{"SMILES": "O=C(CSc1nnc(-c2ccc(NC(=O)c3cccnc3)cc2)o1)Nc1ccc([N+](=O)[O-])cc1", "cell line": "RAW264.7", "test": "TNF-α release, inhibitor, ELISA", "conditions": "LPS-stimulated", "IC50": "2.76 µM"}
{"SMILES": "C=CC(=O)NCc1ccc(C(=O)Nc2ccccc2Oc2ccc(OCC)cc2)cc1", "cell line": "HEK293T", "test": "MYC transcriptional activity, inhibitor, luciferase reporter", "conditions": "24 h", "IC50": "2.8 µM"}
{"SMILES": "O=c1cc(-c2ccccc2)oc2cc(O)cc(O)c12", "cell line": "U-937", "test": "cell growth or viability, ATP luminescence", "conditions": "24 h", "IC50": "217 µM"}
{"SMILES": "COC(=O)c1c(-c2cccc([N+](=O)[O-])c2)c2n(c1C(=O)OC)CCn1cccc1-2", "cell line": "MDA-MB-231", "test": "cell growth or viability, MTT", "conditions": "48 h", "IC50": "43.7 µM"}
{"SMILES": "Cc1cc(-c2cccc(N3CCN(c4ccc(NS(=O)(=O)c5ccc(N[C@H](CCN(C)C)CSc6ccccc6)c([N+](=O)[O-])c5)cc4)CC3)c2)c(-c2ccc(Cl)cc2)n1C", "cell line": "H146, H1417, H1963", "test": "cell growth", "IC50": "> 5 µM"}
{"SMILES": "Cc1cc(C(=O)/C(=C\\c2ccc(C)c(Cl)c2)c2ccc(C)c(Cl)c2)c(C(=O)N2CCCCC2)c(=O)[nH]1", "cell line": "A-375", "test": "cell growth or viability, MTT", "conditions": "72 h", "IC50": "> 10 µM"}
{"SMILES": "Nc1nc2sc(CCCCc3ccc(C(=O)N[C@@H](CCC(=O)O)C(=O)O)cc3)cc2c(=O)[nH]1", "cell line": "KB and IGROV-1", "test": "cell growth", "IC50": "0.0047 to 0.334 µM"}
{"SMILES": "CC(C)=CCc1c(O)cc(/C=C/c2ccc(O)cc2)cc1O", "cell line": "HL-60", "test": "reactive oxygen species, inhibitor, fluorescence", "IC50": "0.04 µg/mL"}
{"SMILES": "COc1cc(OC)c2c(O)cc(C(=O)NCCCN3CCOCC3)cc2c1", "cell line": "C26, HepG2, MCF7", "test": "cytotoxicity, MTT", "conditions": "range over three cell lines", "IC50": "14.5 to 25.1 µM"}
{"SMILES": "CC(=O)c1ccc(NC(=O)CSc2nnc(-c3ccc(NC(=O)c4cccnc4)cc3)n2N)cc1", "cell line": "RAW264.7", "test": "TNF-α release, inhibitor, ELISA", "conditions": "LPS-stimulated", "IC50": "19.7 µM"}
{"SMILES": "COc1ccc(/C=C\\c2cc(OC)c(OC)c(OC)c2)cc1O", "cell line": "HeLa transfected with βIII-tubulin", "test": "cell growth, SRB", "IC50": "0.0052 ± 0.0004 µM"}
{"SMILES": "Cc1ccc(C(C)C)cc1.Cc1ccc(C(C)C)cc1.[Cl][Ru][Cl].[Cl][Ru][Cl]", "cell line": "WM-115", "test": "cell growth or viability, MTT", "conditions": "48 h", "IC50": "> 1000 µM"}
{"SMILES": "O=C1Nc2ccc(OC(F)(F)F)cc2C1n1nc(-c2c(O)c3ccccc3oc2=O)cc1-c1ccc(Br)cc1 (centres unmarked)", "cell line": "A-375", "test": "cell growth or viability, SRB", "conditions": "72 h", "IC50": "4.37 µM"}
{"SMILES": "CCCCCCNC(=O)n1cc(F)c(=O)[nH]c1=O", "cell line": "NIH 3T3", "test": "cell viability, MTT", "conditions": "concentration not given", "IC50": "184 µM"}
{"SMILES": "O=c1c2ccccc2c(-c2nnc(SCNc3cccnc3)o2)nn1CNc1cccnc1", "cell line": "WI-38", "test": "cell growth or viability, MTT", "conditions": "48 h", "IC50": "58.1 µM"}
{"SMILES": "CCN1C(=O)C(n2nc(-c3c(O)c4ccccc4oc3=O)cc2-c2ccc(Cl)cc2)c2cc(Br)ccc21 (centres unmarked)", "cell line": "A-375", "test": "cell growth or viability, SRB", "conditions": "72 h", "IC50": "5.44 µM"}
{"SMILES": "CCN(CC)CCCC(C)Nc1ccnc2cc(Cl)ccc12 (centres unmarked)", "cell line": "KB", "test": "cell growth or viability, resazurin", "conditions": "72 h", "IC50": "110 µM"}
{"SMILES": "Cc1ccc(NC(=O)CSc2nnc(-c3ccc(NC(=O)c4cccnc4)cc3)n2N)cc1", "cell line": "RAW264.7", "test": "reactive oxygen species, inhibitor, fluorescence", "conditions": "LPS-stimulated", "IC50": "3.01 µM"}
{"SMILES": "COc1ccc(Nc2ncnc(-c3cccnc3Nc3cc(NC(=O)c4ccc(CN5CCN(C)CC5)cc4)ccc3C)n2)cc1", "cell line": "Ba/F3 expressing BCR-ABL E255K", "test": "cell proliferation, inhibitor, trypan blue exclusion", "conditions": "48 h, without IL-3", "IC50": "< 0.5 µM"}
{"SMILES": "CC[C@H](C)C(=O)O[C@H]1CCC=C2C=C[C@H](C)[C@H](CC[C@@H](O)C[C@@H](O)CC(=O)O)[C@H]21", "cell line": "DLD-1", "test": "cell viability", "conditions": "0.2% FBS", "IC50": "3.2 µM"}
{"SMILES": "O=c1[nH]c2ccccc2nc1/C=C/c1ccc2ccccc2c1", "cell line": "HeLa 229", "test": "cell growth or viability, MTT", "conditions": "72 h", "IC50": "21.3 µM"}
{"SMILES": "O=C(CSc1nnc(-c2ccc(NC(=O)c3cccnc3)cc2)o1)Nc1cccc(Br)c1", "cell line": "RAW264.7", "test": "TNF-α release, inhibitor, ELISA", "conditions": "LPS-stimulated", "IC50": "8.29 µM"}
{"note": "Repeated from above:"}
{"SMILES": "CC(C)=CCc1c(O)cc(/C=C/c2ccc(O)cc2)cc1O", "cell line": "HL-60", "test": "reactive oxygen species, inhibitor, fluorescence", "IC50": "0.04 µg/mL"}
{"SMILES": "Cc1ccc(C(C)C)cc1.Cc1ccc(C(C)C)cc1.[Cl][Ru][Cl].[Cl][Ru][Cl]", "cell line": "WM-115", "test": "cell growth or viability, MTT", "conditions": "48 h", "IC50": "> 1000 µM"}
